Results gathered from unrelated publications.
Sequence of UniProt P45985 (whole entry, looked up): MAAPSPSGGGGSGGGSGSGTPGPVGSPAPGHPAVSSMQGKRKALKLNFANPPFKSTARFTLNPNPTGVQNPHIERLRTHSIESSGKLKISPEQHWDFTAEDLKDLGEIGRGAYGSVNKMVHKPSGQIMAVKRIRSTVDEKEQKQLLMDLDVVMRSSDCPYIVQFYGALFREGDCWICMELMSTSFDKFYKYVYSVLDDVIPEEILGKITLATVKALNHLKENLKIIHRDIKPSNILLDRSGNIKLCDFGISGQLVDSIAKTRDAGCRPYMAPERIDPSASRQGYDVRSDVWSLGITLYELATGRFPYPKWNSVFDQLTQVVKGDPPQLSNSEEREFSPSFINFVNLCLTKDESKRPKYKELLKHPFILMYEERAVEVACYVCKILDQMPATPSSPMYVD
Sequence of UniProt O00444 (whole entry, looked up): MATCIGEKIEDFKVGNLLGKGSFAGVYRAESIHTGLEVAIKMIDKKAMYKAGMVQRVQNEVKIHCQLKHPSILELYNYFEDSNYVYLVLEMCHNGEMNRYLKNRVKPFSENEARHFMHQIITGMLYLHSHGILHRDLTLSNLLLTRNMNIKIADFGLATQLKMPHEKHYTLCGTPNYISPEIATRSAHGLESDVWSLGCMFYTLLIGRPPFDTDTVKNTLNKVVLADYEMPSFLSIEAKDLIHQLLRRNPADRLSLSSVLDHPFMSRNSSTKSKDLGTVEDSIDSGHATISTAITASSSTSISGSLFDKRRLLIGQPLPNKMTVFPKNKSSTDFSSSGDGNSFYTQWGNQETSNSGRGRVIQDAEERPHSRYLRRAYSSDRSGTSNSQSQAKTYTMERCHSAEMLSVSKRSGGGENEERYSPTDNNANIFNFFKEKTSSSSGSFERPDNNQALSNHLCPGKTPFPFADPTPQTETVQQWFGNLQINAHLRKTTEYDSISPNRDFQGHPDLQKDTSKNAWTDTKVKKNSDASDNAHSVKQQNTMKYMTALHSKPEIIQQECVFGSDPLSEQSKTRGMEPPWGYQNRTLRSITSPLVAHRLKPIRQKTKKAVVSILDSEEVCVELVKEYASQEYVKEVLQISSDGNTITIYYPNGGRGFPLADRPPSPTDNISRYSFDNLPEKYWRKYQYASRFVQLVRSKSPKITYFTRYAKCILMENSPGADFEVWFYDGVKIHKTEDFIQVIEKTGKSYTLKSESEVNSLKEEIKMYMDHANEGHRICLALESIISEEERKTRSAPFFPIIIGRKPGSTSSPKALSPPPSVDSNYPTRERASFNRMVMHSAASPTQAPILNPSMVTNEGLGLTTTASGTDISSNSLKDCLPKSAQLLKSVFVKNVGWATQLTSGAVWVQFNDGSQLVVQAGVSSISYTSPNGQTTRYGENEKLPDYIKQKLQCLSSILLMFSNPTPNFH
Sequence of UniProt O15264 (whole entry, looked up): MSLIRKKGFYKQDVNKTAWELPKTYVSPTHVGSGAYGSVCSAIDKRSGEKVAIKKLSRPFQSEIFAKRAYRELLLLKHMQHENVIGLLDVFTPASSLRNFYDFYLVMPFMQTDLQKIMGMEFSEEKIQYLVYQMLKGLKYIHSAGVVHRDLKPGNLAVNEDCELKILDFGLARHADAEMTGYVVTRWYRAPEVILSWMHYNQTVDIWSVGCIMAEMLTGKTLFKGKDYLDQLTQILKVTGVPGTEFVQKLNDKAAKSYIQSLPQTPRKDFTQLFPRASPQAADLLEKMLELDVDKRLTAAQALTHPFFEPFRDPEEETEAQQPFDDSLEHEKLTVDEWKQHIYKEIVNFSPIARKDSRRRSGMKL
Sequence of UniProt P08631 (whole entry, looked up): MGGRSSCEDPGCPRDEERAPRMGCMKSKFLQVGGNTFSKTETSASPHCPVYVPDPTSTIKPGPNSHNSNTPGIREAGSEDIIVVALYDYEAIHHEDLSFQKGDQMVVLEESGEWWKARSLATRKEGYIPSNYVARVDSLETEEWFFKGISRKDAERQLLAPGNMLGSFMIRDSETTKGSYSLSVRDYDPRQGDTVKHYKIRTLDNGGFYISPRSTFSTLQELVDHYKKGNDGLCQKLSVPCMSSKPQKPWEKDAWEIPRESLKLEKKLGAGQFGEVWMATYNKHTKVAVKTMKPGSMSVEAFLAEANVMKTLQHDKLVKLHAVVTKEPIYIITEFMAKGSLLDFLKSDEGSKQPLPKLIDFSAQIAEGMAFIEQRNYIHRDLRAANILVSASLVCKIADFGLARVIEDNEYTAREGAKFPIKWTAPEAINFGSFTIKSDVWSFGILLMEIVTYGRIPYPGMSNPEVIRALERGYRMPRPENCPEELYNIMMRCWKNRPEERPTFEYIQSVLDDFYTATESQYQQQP

SMILES	tested on	test	system	conditions	measurement	result
Cn1cc(-c2nc(N3CCC(c4ccccn4)C3)c3ccccc3n2)cn1 (stereo not drawn)	–	–	PAMPA	10 µM, 3 h, pH 7.4	Papp	36.7 ×10⁻⁶ cm/s
NCc1cc2c(cc1F)C(=O)N(C1CCC(=O)NC1=O)C2 (stereo not drawn)	–	–	male CD-1 mouse, plasma	intravenous, 1 mg/kg, 4.98 min	concentration	347 ng/mL
COCCc1ccc(OCC(O)CNC(C)C)cc1 (stereo not drawn)	–	metabolic stability	human, hepatocytes	0.5 µM, pH 7.4	hepatocyte CLint	4.05 µL/min/10⁶ cells
O=c1c2ccc(OCc3cccc(OC(F)(F)F)c3)cc2[nH]c2cc(Cl)cc(F)c12	–	metabolic stability	mouse, liver microsomes	1 µM, pH 7.4	microsomal CLint	3.55 µL/min/mg
COc1cc2c3c(n(CCCNC(C)C)c(=O)c2cc1OC)-c1nc2c(cc1C3=O)OCO2	–	–	male CD-1 mouse, plasma	intravenous, 1 mg/kg	clearance	99.2 mL/min/kg
COc1cccc(-c2n[nH]c(SCc3ccccn3)n2)c1OC	–	–	male Sprague-Dawley rat, plasma	intravenous, 1 mg/kg, 4.98 min, single dose	concentration	6460 ng/mL
COc1cc(C(=O)NC2CCN(C)CC2)c(F)cc1Nc1ncc(C(F)(F)F)c(Oc2cccc3c2C(=O)N(C)C3)n1	–	–	human, plasma	oral, 100 mg, multiple doses, once daily, steady state, patients	Cmax	1430 nM
c1ccc(-c2nc(N3CCCC3)c3ccccc3n2)nc1	–	–	PAMPA	10 µM, 3 h, pH 7.4	Papp	27.9 ×10⁻⁶ cm/s
N=C(N)c1cccc(OCc2ccc(COc3cccc(C(=N)N)c3)cc2)c1	–	haemolysis	sheep	200 µg/mL, 1 h	haemolysis	0%
CCn1cc(C)c2c([C@H](O)c3ccc(C(F)(F)F)nc3)n(C)nc2c1=O	–	metabolic stability	human, hepatocytes	0.5 µM, pH 7.4	hepatocyte CLint	1.8 µL/min/10⁶ cells
O=C(c1ccc(F)cc1)C1CCN(CCn2c(=O)[nH]c3ccccc3c2=O)CC1	–	metabolic stability, mass spectrometry	human, liver microsomes	5 min	compound remaining	91.5%
N=C(N)c1ccc(OCCCCCCCCCOc2ccc(C(=N)N)cc2)cc1	–	haemolysis	sheep	200 µg/mL, 1 h	haemolysis	9.7%
Cc1[nH]c(C)c(S(=O)(=O)Nc2ccc(C(F)(F)F)c(Cl)c2)c1C(=O)N1CCC(F)(F)C1	–	–	male CD-1 mouse, plasma	intraperitoneal, 40 mg/kg	Cmax	13700 ng/g
CCn1ncc2c(N3CCC(c4ccccn4)C3)nc(-c3ccccn3)nc21 (stereo not drawn)	–	metabolic stability	mouse, liver microsomes	–	microsomal CLint	63 µL/min/mg
COc1ccc([C@@H](O)c2cc(-c3ncnc4cc(N5CCOCC5)ccc34)c(F)cc2Cl)nn1	–	–	human, plasma	oral, 250 mg, multiple doses, once daily, patients	Cmax	3150 ng/mL
O=C(CCCCCCC(=O)Nc1ccc(CC[18F])cc1)NO	–	–	male nude mouse, stomach	intravenous, 30 min, tumour-bearing	tracer uptake	2.1 %ID/g
CC(=NNC(=O)c1ccccc1O)c1ccc(Nc2nnc(-c3ccc(Cl)cc3)c3ccccc23)cc1	MCF7	cell growth or viability, MTT	–	0.312 µM	cell death	0.708%
Cn1nc2c(=O)n(C3CC3)ccc2c1[C@](O)(c1ccc(C(F)(F)F)nc1)C1CC1	–	metabolic stability	male Sprague-Dawley rat, hepatocytes	0.5 µM, pH 7.4	hepatocyte CLint	2.3 µL/min/10⁶ cells
Oc1cccc(-c2nc(N3CCC(c4ccccn4)C3)c3ccccc3n2)c1 (stereo not drawn)	–	–	PAMPA	10 µM, 3 h, pH 7.4	Papp	33.2 ×10⁻⁶ cm/s
COc1ccc(C[C@@H](C)[C@@H](C)Cc2ccc(OC)c(OC)c2)cc1OC	–	–	male beagle dog, plasma	oral, 1000 mg/kg/day, multiple doses, once daily	AUC(0-t)	17800 ng·h/mL
Fc1ccccc1-c1nc(N2CCC(c3ccccn3)C2)c2ccccc2n1 (stereo not drawn)	–	metabolic stability	mouse, liver microsomes	–	microsomal CLint	688 µL/min/mg
O=C1CC[C@H](N2Cc3cc(N4CCN(CC5CCN(c6ccc([C@@H]7c8ccc(O)cc8CC[C@@H]7c7ccccc7)cc6)CC5)CC4)ccc3C2=O)C(=O)N1	–	–	male Sprague-Dawley rat, plasma	oral, 20 mg/kg, fasted	AUC(0-t)	6110 ng·h/mL
N=C(N)c1ccc(OCc2ccccc2COc2ccc(C(=N)N)cc2)cc1	–	haemolysis	sheep	200 µg/mL, 1 h	haemolysis	1.7%
CCn1ccc2c([C@@](O)(CC)c3ccc(C(F)(F)F)nc3)n(C)nc2c1=O	–	metabolic stability	male Sprague-Dawley rat, hepatocytes	0.5 µM, pH 7.4	hepatocyte CLint	4.5 µL/min/10⁶ cells
COc1ccc(-c2coc3cc(O)ccc3c2=O)cc1	–	–	Caco-2	100 µg/mL, 2 h	Papp B→A	2.94 ×10⁻⁶ cm/s
Cc1cc([C@@H](C)Nc2ccccc2C(=O)O)c2nc(N3CCC(F)(F)CC3)c(C#N)c(=O)n2c1	PLK4 (Homo sapiens, UniProt O00444)	binding, competition with immobilised ligand	–	10 µM	remaining binding	70%

SMILES	tested on	test	system	conditions	measurement	result
CN(O)N=Nc1ccc(S(=O)(=O)Nc2nccs2)cc1	–	ABTS scavenging	–	60 µg/mL	inhibition	55%
Nc1ccc(-c2nc([C@H]3CCc4cc(-c5cc(Cl)ccc5-n5cnnn5)cc(=O)n43)c(F)[nH]2)c(F)n1	–	–	human, plasma	oral, 80 mg, single dose, fasted	Cmax	942 ng/mL
COc1cc(-c2cncc3c2CN(C)Cc2cc(N4CCNCC4)ccc2-3)cc(OC)c1OC	HCK (Homo sapiens, UniProt P08631)	enzyme activity, inhibitor	–	1 µM	remaining activity	102%
COc1cc2c3c(n(CCCN4CCOCC4)c(=O)c2cc1OC)-c1cc2c(cc1C3=O)OCO2	–	–	female beagle dog, plasma	intravenous, 10 mg/m², infusion	AUC(0-inf)	262 ng·h/mL
CCN1CCN(Cc2ccc(NC(=O)c3ccc(C)c(NC(=O)c4cncc(-c5cccs5)c4)c3)cc2C(F)(F)F)CC1	–	–	mouse, plasma	intraperitoneal, 30 mg/kg, single dose	CL/F	157 mL/min/kg
O=C(COc1ccc(Cl)cc1)NC12CC(c3nnc([C@H]4C[C@@H](OC(F)(F)F)C4)o3)(C1)C2	–	–	human, plasma	oral, 200 mg, multiple doses, once daily, healthy volunteers	half-life	46.4 h
CC(=O)N(C)[C@H]1CCN(C(=O)c2cnc3c(c2)C[C@](C)(c2ccc(F)cc2)N3)C1	–	–	male human, plasma	oral, 60 mg, multiple doses, once daily, steady state	AUC(0-t)	8.17 µM·h
O=C(Nc1ccc(CN2CCOCC2)c(C(F)(F)F)c1)c1ccc(C#Cc2cccc3cnccc23)cn1	–	metabolic stability	mouse, liver microsomes	1 h	compound remaining	4.95%
CCn1ncc2c([C@](O)(c3ccc(C(F)(F)F)c(Cl)c3)C3CC3)n(C)nc2c1=O	–	metabolic stability	human, hepatocytes	0.5 µM, pH 7.4	hepatocyte CLint	6.6 µL/min/10⁶ cells
O=c1cc(-c2ccc(O)cc2)oc2c([C@@H]3O[C@H](CO)[C@@H](O)[C@H](O)[C@H]3O)c(O)cc(O)c12	–	–	Caco-2	100 µg/mL	efflux ratio	1.21
C=CC(=O)N1CCC(COCC(=O)N2CCN(c3nc(-c4cnc(N)nc4C(F)F)nc(N4CCOC[C@@H]4C)n3)CC2)CC1	Tyrosine-protein kinase ABL1, non-phosphorylated (ABL1, Homo sapiens, UniProt P00519, H396P)	binding, competition with immobilised ligand	–	1 µM	remaining binding	99%
c1ccc(C2CCN(c3nc(-c4ccco4)nc4ccccc34)C2)nc1 (stereo not drawn)	–	–	PAMPA	10 µM, 3 h, pH 7.4	Papp	44.4 ×10⁻⁶ cm/s
CCONC(=O)N1CCC[C@H](C(=O)NCc2nc(-c3ccc(C#N)cc3)cs2)C1	–	–	male Sprague-Dawley rat, plasma	oral, 3 mg/kg	AUC	3.7 µM·h
COc1ccc2c(c1)CN(C(=O)CCN1CCC(Cc3ccccc3)CC1)CC[S@@+]2[O-]	–	–	male human, plasma	intravenous, 0.01 mg/kg, healthy volunteers	Vd	75.2 L
CCOC(=O)[C@@]12C[C@@H]1[C@@H](n1ccc3c(NC)nc(C#Cc4ccc(Cl)s4)nc31)[C@H](O)[C@@H]2O	–	–	male Sprague-Dawley rat, plasma	oral, 1 mg/kg	Tmax	0.83 h
Cc1ccc(N(O)N=Nc2ccc(S(=O)(=O)Nc3onc(C)c3C)cc2)cc1	–	ABTS scavenging	–	60 µg/mL	inhibition	49.9%
O=C(C=Cc1ccccc1)Nc1ccc(Oc2nnc(-c3ccc(Cl)cc3)c3ccccc23)cc1	MCF7	cell growth or viability, MTT	–	10 µM, 24 h	viability	8.15%
N#Cc1ccc(-c2csc(CNC(=O)[C@H]3CCCN(C(=O)N4CCCO4)C3)n2)cc1	–	metabolic stability	male Sprague-Dawley rat, liver microsomes	0.5 µM	microsomal CLint	110 µL/min/mg
CNc1ncc2c(/C=C/C(=O)N3CCC(OC)CC3)nn(Cc3cccc(C(F)(F)F)c3)c2n1	MAP2K4 (Homo sapiens, UniProt P45985)	enzyme activity, inhibitor, radiometric	–	1 µM	remaining activity	101%
NC(=O)c1cccc(-c2nc(N3CCC(c4ccccn4)C3)c3ccccc3n2)c1 (stereo not drawn)	–	metabolic stability	mouse, liver microsomes	–	microsomal CLint	378 µL/min/mg
CCCCNC(=O)NS(=O)(=O)c1ccc(C)cc1	–	metabolic stability	human, hepatocytes	0.5 µM, pH 7.4	hepatocyte CLint	3.4 µL/min/10⁶ cells
O=C(NCc1nc(-c2ccc(C(F)(F)F)cc2)cs1)[C@H]1CCCN(C(=O)COCCN2CCCCC2)C1	–	metabolic stability	male Sprague-Dawley rat, liver microsomes	0.5 µM	microsomal CLint	83 µL/min/mg
N#C[C@@]12C[C@@H]1[C@@H](n1cnc3c(N[C@@H](C4CCC4)C4CC4)nc(I)nc31)[C@H](O)[C@@H]2O	–	–	male Wistar rat, plasma	oral, 1 mg/kg	AUC(0-t)	15.9 ng·h/mL
CCCCC(=O)Nc1ccc(-c2ccc3ncn(CCC)c(=O)c3c2)cn1	MAPK13 (Homo sapiens, UniProt O15264)	binding, competition with immobilised ligand	–	0.5 µM	remaining binding	70%
O=c1c2c([nH]c3cc(Nc4ccc(OC(F)(F)F)cc4)ccc13)CCCC2	–	metabolic stability	mouse, liver microsomes	1 µM, pH 7.4	microsomal CLint	80.4 µL/min/mg

Excerpt of the above:
SMILES	tested on	test	system	conditions	measurement	result
CCn1ccc2c([C@@](O)(CC)c3ccc(C(F)(F)F)nc3)n(C)nc2c1=O	–	metabolic stability	male Sprague-Dawley rat, hepatocytes	0.5 µM, pH 7.4	hepatocyte CLint	4.5 µL/min/10⁶ cells
COc1ccc(-c2coc3cc(O)ccc3c2=O)cc1	–	–	Caco-2	100 µg/mL, 2 h	Papp B→A	2.94 ×10⁻⁶ cm/s
Cc1cc([C@@H](C)Nc2ccccc2C(=O)O)c2nc(N3CCC(F)(F)CC3)c(C#N)c(=O)n2c1	PLK4 (Homo sapiens, UniProt O00444)	binding, competition with immobilised ligand	–	10 µM	remaining binding	70%
CN(O)N=Nc1ccc(S(=O)(=O)Nc2nccs2)cc1	–	ABTS scavenging	–	60 µg/mL	inhibition	55%
Nc1ccc(-c2nc([C@H]3CCc4cc(-c5cc(Cl)ccc5-n5cnnn5)cc(=O)n43)c(F)[nH]2)c(F)n1	–	–	human, plasma	oral, 80 mg, single dose, fasted	Cmax	942 ng/mL
COc1cc(-c2cncc3c2CN(C)Cc2cc(N4CCNCC4)ccc2-3)cc(OC)c1OC	HCK (Homo sapiens, UniProt P08631)	enzyme activity, inhibitor	–	1 µM	remaining activity	102%
COc1cc2c3c(n(CCCN4CCOCC4)c(=O)c2cc1OC)-c1cc2c(cc1C3=O)OCO2	–	–	female beagle dog, plasma	intravenous, 10 mg/m², infusion	AUC(0-inf)	262 ng·h/mL
CCN1CCN(Cc2ccc(NC(=O)c3ccc(C)c(NC(=O)c4cncc(-c5cccs5)c4)c3)cc2C(F)(F)F)CC1	–	–	mouse, plasma	intraperitoneal, 30 mg/kg, single dose	CL/F	157 mL/min/kg
